Measured values gathered from unrelated publications.
Each numbered part is a random draw from the data of one study; scales do not carry over between parts. Substitutions count along the parent as printed.

Block 1 — technique: universal PBM; form: double-stranded DNA, one strand shown; medium: in vitro; tested at: 600 nM; direction: higher = stronger binding
Target: Sal-like protein 4, full length isoform A (SALL4, Homo sapiens, UniProt Q9UJQ4, residues 1-1053)
Sequence of UniProt Q9UJQ4 (whole entry, looked up): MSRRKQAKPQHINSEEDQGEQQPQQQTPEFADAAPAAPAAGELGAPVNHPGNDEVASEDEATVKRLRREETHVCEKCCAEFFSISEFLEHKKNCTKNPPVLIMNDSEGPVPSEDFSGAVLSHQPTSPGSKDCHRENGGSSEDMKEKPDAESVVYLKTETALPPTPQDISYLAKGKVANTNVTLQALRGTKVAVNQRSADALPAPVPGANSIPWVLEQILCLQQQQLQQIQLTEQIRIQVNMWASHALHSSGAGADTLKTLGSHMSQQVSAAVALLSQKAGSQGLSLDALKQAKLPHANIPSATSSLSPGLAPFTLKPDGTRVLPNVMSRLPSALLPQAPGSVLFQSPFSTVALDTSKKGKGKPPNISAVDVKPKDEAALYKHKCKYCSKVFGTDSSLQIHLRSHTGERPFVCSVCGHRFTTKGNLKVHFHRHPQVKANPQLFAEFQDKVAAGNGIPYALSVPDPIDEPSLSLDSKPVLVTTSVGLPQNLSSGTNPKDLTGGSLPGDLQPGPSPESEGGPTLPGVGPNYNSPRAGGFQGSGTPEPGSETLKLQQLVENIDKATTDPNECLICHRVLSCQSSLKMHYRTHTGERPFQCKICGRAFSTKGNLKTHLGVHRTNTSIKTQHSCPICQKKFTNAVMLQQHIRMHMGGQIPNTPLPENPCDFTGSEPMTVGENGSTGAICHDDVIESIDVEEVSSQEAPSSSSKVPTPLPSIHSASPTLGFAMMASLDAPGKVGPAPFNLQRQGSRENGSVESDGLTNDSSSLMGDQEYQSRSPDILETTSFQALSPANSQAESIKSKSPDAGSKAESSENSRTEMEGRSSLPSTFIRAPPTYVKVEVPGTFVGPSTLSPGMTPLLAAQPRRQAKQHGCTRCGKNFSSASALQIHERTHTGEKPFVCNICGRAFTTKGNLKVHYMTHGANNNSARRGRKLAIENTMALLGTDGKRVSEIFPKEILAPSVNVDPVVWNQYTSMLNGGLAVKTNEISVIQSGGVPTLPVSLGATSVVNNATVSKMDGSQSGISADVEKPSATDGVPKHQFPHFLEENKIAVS
Notes: 8-mer, flanks averaged, mean of replicates
Sequence | E-score
CTTAGTGC | -0.103
CACAAAGA | 0.0864
GACAAACC | -0.0416
CGGAAGGC | -0.244
AGCGCCAC | -0.34
GGACTTGA | -0.12
ATGCAATC | 0.108
AGTAAGAC | -0.0861

Block 2 — target: CCNB1, cyclin fold, Cln2 fusion (human); technique: yeast growth competition, sequencing; medium: yeast; notes: strong parent motif; relative to: not given; direction: higher = stronger binding; starting sequence: viral docking peptide; YKVKRRLVFGADD
Substitution | normalised enrichment score
L7R | 1.03
R6P | 0.482
D12Y | 2.1
V3K | 0.385
V3E | 0.471
K4I | 2.97
K2P | 4.49
F9C | 0.456
F9G | 0.44
V3P | 0.762
K2F | 2.98
L7K | 0.564
D12V | 2.47

Block 3 — effect on: binding; technique: phage display NGS; form: peptide; tested at: concentration not given; notes: panning round 2; relative to: input library
Target: UDP-N-acetylglucosamine--peptide N-acetylglucosaminyltransferase 110 kDa subunit (OGT, Homo sapiens, UniProt O15294)
Sequence of UniProt O15294 (whole entry, looked up): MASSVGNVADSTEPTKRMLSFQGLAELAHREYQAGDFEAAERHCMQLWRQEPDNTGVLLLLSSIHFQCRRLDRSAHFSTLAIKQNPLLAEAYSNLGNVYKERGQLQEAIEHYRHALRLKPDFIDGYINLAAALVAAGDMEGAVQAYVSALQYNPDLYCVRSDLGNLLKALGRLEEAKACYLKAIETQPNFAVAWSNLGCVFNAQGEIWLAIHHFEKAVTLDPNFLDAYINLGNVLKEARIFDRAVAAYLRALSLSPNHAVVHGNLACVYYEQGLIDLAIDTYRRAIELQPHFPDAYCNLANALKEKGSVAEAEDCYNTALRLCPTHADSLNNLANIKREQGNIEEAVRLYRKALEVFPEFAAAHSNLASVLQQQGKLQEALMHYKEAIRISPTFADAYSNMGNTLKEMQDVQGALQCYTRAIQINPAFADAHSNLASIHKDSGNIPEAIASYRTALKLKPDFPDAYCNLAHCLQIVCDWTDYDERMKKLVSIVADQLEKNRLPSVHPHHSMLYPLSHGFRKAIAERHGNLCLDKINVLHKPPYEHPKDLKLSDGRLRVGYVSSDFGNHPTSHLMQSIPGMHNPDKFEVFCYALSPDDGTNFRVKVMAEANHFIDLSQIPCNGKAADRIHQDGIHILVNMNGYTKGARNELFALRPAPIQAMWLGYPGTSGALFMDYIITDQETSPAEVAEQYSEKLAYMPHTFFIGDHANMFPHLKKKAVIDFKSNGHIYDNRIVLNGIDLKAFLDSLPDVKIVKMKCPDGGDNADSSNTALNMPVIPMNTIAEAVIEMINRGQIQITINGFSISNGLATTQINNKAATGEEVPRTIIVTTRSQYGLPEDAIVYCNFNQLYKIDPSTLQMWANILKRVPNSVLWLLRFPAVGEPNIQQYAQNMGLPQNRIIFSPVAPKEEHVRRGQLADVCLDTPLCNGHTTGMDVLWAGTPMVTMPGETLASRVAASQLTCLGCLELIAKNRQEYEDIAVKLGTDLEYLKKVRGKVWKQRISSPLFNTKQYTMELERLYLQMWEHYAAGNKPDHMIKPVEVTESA
Molecule | enrichment fold change
HPQMHPFRGQQHHVY | 5.07
NTPQYYRPYYQITVK | 7.86
IEMHHQHHAHLLNR | 7.04
HMFTNQHHFRPMHQA | 10.8

Block 4 — target: tungstate, free oxyanion; technique: microfluidic competitive inhibition; medium: in vitro, cell-free expressed; tested at: not given; direction: lower = stronger binding
Notes: derived from inhibition constants, unchanged parent 2230 nM
Starting sequence: PafA, mature enzyme, eGFP fusion (Elizabethkingia meningoseptica, UniProt Q9KJX5); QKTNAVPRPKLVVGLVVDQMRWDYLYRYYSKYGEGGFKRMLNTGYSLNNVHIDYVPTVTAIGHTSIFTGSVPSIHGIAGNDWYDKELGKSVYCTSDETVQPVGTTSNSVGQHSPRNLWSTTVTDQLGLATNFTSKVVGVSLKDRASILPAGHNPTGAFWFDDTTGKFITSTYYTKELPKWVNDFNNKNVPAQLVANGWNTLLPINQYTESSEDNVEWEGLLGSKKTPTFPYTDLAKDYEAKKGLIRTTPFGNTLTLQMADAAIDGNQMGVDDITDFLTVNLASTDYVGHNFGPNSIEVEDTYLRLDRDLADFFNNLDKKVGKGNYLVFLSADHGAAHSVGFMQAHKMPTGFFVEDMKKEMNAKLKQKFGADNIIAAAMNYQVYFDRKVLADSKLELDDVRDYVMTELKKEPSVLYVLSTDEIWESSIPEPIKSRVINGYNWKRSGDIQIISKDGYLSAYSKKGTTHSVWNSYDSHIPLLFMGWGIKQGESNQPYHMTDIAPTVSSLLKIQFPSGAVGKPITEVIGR
Substitution | oxyanion analog dissociation constant
V287G | 4.74 µM
E34V | 2.11 µM
L507G | 1.15 µM
N252V | 4.75 µM
L148G | 566 nM

For quick reference, copied from above (block 2):
Substitution | normalised enrichment score
F9G | 0.44
V3P | 0.762
